Measured values collected from several papers.
Numbered parts are unrelated; each lists some results of a single study.

Study 1
Target: Sal-like protein 4, full length isoform B (SALL4, Homo sapiens, UniProt Q9UJQ4-2, residues 1-616)
Technique: universal PBM
Form: double-stranded DNA, one strand shown
Matrix: in vitro
Tested at: not given
Notes: 8-mer, flanks averaged, mean of replicates
Reading: higher = stronger binding
Quantity: E-score
Sequence = GGAAGTAC; result = -0.0299
Sequence = CCGACATA; result = -0.0476
Sequence = CGTCGGCA; result = -0.305
Sequence = GACTGACC; result = -0.302
Sequence = GACACGTC; result = -0.189
Sequence = CTATAGCC; result = -0.12

Study 2
Target: Histone acetyltransferase KAT6A, winged helix 2, GST fusion (KAT6A, Homo sapiens, UniProt Q92794, residues 85-181)
Technique: protein binding microarray
Form: double-stranded DNA, one strand shown
Matrix: in vitro
Tested at: not given
Notes: 8-mer, flanks averaged, mean of 2 arrays, mostly near background
Baseline: not given
Reading: higher = stronger binding
Quantity: E-score
Target sequence (chain): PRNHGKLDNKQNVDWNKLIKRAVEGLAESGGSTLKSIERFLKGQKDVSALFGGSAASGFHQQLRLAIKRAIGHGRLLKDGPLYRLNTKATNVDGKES
Sequence = ACAATACC; result = -0.0908
Sequence = GACAGACC; result = -0.06
Sequence = AAAAATGA; result = 0.0771
Sequence = CGAAACAG; result = 0.115

Study 3
Target: RNA binding protein fox-1 homolog 2, RRM domain, GST-SBP tag (RBFOX2, Homo sapiens, UniProt O43251-10, residues 100-194)
Technique: RNA Bind-n-Seq
Form: RNA
Matrix: in vitro
Tested at: 365 nM
Notes: natural RNA segment, single round, ends assumed
Baseline: no-protein control
Reading: higher = stronger binding
Quantity: RBNS enrichment (R)
Sequence = GGGAGUUCUACAGUCCGACGAUCUGUUGCUGGUUUUCAUCAUCUAUGAGGGUAAAACGAGUACCCUUAAAAUCCCUGUGGCCAGUUUGAACACCCCUGUUGUAUUCUUUUCUCUGUUCAGUGUGUCAGCUAUUUGGAAUUCUCGGGUGCCAA; result = 0.858
Sequence = GGGAGUUCUACAGUCCGACGAUCCUAUUCUGUGUUGAACACAAUUGAUACUUCAGGUGCUUUUGAUGUGAAAAUCAUGAAAAGAGGAACAGGUGGAUGUAUAGCAUUUUUAUUCAUGCCAUCUGUUUUCAACCUGGAAUUCUCGGGUGCCAA; result = 0.618
Sequence = GGGAGUUCUACAGUCCGACGAUCCAUGCUGUGCUCUUGGAGCUUGUCCUGUCUUCUGGAAGCCCUGGACAAGGCGUGUGAAGGCUUCCCAGAAGUUCCUGUCCACAUUGCCUCCGCCCACCGACGCCAUGGGCUGGAAUUCUCGGGUGCCAA; result = 0.65

Mixed results
Substance = PhoQ, residues 284 288 289 292 302 303 SVTLVV; target = PhoP, residues 12 14 15 18 19 FWNTL (Escherichia coli, UniProt P23836); assay = Sort-seq, measured: YFP reporter; test system = E. coli; setting = PhoQ-PhoP variant library, together with: 10 µM Mg2+; scale = baseline: high Mg2+ state, higher = stronger signaling; quantity = fold induction; result = 8.97

Some of these lines once more (study 1):
Sequence = GACACGTC; result = -0.189
Sequence = CTATAGCC; result = -0.12
